Results collected from several papers.
Numbered parts are unrelated; each lists some results of a single study. Positions count from the first letter of the parent shown.

Set 1
Target: CCNE2, cyclin fold, Cln2 fusion (human)
Technique: yeast growth competition, sequencing
Medium: yeast
Notes: weak parent motif
Reference: not given
Direction: higher = stronger binding
Measurement: normalised enrichment score
Starting sequence: viral docking peptide; PGASRRLFGSSAD; partner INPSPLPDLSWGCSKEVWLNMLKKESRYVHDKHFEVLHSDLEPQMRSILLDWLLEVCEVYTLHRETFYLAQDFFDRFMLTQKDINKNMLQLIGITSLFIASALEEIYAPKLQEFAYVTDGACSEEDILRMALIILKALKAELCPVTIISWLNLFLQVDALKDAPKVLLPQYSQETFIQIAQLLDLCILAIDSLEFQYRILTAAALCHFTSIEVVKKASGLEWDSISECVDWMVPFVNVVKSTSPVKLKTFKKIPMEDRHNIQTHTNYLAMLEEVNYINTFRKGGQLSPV
Variant = R6A; value = -0.579
Variant = P1A; value = 0.248
Variant = S4A; value = 1.31
Variant = F8A; value = 0.0755
Variant = G2A; value = 0.539
Variant = L7A; value = 0.139
Variant = R5K F8L; value = 0.538
Variant = R5K; value = 0.0701
Variant = R5A L7A; value = 0.356

Set 2
Target: PABPC1L2, full length, GST fusion (mouse, UniProt A0ABA7IW68)
Technique: RNAcompete
Molecule type: RNA
Medium: in vitro
Concentration: 20 nM
Notes: 7-mer, probes averaged, single round
Reference: mean of 7-mers
Direction: higher = stronger binding
Measurement: 7-mer Z-score
Construct (chain): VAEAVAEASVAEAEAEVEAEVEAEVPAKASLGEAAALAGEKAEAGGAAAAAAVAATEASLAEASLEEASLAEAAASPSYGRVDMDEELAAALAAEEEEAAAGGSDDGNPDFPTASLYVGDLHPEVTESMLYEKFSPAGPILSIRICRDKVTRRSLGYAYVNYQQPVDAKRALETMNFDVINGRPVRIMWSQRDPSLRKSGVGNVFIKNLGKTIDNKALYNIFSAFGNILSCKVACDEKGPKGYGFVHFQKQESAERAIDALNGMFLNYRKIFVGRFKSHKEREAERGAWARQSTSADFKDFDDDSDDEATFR
Sequence = GACACGG; value = -0.0264
Sequence = GUCCCUU; value = -0.394
Sequence = GCUACAA; value = 0.095
Sequence = AGAGCCU; value = -0.347
Sequence = AGUACUG; value = -0.211
Sequence = CCAAUAA; value = 0.376
Sequence = ACUUCGG; value = -0.126
Sequence = UUUGAAC; value = -0.258

Set 3
Target: UDP-N-acetylglucosamine--peptide N-acetylglucosaminyltransferase 110 kDa subunit (OGT, Homo sapiens, UniProt O15294)
UniProt O15294, sequence (whole entry, looked up): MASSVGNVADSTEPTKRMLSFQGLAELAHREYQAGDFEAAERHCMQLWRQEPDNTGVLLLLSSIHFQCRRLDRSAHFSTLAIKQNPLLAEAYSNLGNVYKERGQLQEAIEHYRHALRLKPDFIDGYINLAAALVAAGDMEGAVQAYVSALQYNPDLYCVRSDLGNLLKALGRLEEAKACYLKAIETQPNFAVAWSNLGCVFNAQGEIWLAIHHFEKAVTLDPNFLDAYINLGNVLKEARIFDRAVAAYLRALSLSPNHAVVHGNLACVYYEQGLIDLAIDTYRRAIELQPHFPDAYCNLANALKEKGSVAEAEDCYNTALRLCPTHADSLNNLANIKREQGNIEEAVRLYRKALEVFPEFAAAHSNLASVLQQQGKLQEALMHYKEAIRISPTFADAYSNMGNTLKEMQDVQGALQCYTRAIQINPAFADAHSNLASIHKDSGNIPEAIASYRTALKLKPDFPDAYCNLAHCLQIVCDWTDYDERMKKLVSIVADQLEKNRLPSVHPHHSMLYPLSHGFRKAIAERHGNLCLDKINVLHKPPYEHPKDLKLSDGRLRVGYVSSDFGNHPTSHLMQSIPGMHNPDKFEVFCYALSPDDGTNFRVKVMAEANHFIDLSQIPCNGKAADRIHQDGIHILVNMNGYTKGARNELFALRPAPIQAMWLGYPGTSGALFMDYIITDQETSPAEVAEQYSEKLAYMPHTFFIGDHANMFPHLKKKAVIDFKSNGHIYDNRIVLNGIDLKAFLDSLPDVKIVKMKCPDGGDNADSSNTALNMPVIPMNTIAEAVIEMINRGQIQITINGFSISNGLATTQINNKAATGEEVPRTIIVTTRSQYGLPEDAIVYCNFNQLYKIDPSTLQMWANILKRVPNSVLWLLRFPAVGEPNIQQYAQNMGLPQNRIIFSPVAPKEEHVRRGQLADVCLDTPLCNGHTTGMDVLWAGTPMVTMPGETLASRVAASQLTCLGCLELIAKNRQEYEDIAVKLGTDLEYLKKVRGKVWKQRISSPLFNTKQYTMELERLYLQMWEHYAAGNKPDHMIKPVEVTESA
Observed: binding
Technique: phage display NGS
Molecule type: peptide
Notes: panning round 2
Reference: input library
Measurement: minimum log2 enrichment ratio
Molecule = LPIPKFLPIYQLKLE; value = 2.74
Molecule = SNFMPFYIIQVKADT; value = 4.23
Molecule = HQYDIHHHTYTVRVH; value = 2.36
Molecule = GMSPWHFHSHQAIMV; value = 2.54

Set 4
Target: tungstate, free oxyanion
Technique: microfluidic competitive inhibition
Medium: in vitro, cell-free expressed
Concentration: not given
Notes: derived from inhibition constants, unchanged parent 2230 nM
Direction: lower = stronger binding
Measurement: oxyanion analog dissociation constant
Starting sequence: PafA, mature enzyme, eGFP fusion (Elizabethkingia meningoseptica, UniProt Q9KJX5); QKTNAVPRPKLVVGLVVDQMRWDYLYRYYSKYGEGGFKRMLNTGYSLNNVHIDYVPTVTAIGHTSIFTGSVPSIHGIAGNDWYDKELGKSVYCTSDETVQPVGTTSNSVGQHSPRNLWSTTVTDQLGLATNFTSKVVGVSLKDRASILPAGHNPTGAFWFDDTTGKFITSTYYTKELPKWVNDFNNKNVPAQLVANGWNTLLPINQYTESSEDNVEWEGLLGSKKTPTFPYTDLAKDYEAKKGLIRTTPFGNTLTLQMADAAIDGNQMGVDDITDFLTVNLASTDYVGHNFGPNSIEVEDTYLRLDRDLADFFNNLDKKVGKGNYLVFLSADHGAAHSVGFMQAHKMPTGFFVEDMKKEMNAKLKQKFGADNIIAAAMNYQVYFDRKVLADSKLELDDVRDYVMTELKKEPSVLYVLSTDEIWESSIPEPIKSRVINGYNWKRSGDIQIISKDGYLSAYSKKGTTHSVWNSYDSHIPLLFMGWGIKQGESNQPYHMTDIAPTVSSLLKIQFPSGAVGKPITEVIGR
Variant = G517V; value = 877 nM
Variant = Y455G; value = 983 nM
Variant = F67V; value = 843 nM
Variant = N324V; value = 2.68 µM
Variant = A370G; value = 2.07 µM

Excerpt of the above (set 1):
Variant = L7A; value = 0.139
Variant = R5K F8L; value = 0.538
Variant = R5K; value = 0.0701
